Results of several laboratories.
Every numbered part comes from another study and shows a few of its results, in no order. Positions count from the first letter of the parent shown.

Study 1
Target: CREB3, bZIP domain (human)
Technique: DHFR protein complementation
Matrix: yeast
Setting: single substitutions, most at no-binding floor
Reference: wild-type JUN-FOS pair
Direction: higher = stronger binding
Parent: JUN, bZIP domain (human); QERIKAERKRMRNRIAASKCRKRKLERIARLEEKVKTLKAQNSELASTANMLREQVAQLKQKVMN; partner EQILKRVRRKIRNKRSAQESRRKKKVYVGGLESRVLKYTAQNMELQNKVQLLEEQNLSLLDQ
| Substitution | binding fitness [natural log] |
| --- | --- |
| R53I | -1.33 |
| T48C | -1.37 |
| K36L | -1.43 |
| T48H | -1.46 |
| T48K | -1.3 |
| R30A | -1.29 |
| Q41H | -1.45 |
| Q41A | -1.35 |
| V56C | -1.5 |
| S47T | -1.26 |

Study 2
Target: CCNB3, cyclin fold, Cln2 fusion (human)
Technique: yeast growth competition, sequencing
Matrix: yeast
Setting: strong parent motif
Reference: not given
Direction: higher = stronger binding
Parent: RBL2 docking peptide (human); STTRRRLFVENDS
| Substitution | normalised enrichment score |
| --- | --- |
| D12S | 0.515 |
| R5W | 0.0145 |
| V9H | 0.928 |
| E10N | 0.597 |
| T2W | 1.41 |
| R4A | 1.06 |
| N11M | 0.915 |
| T3Q | 0.0764 |
| R4S | 0.197 |
| R5A | -0.192 |
| R5D | -0.208 |
| R6T | 1.83 |
| R5M | 0.239 |
| V9Y | 0.969 |
| S1Y | 1.08 |
| R4C | 0.595 |
| R4F | 1.37 |

Study 3
Substance: PhoQ, residues 284 288 289 292 302 303 SCEHLI
Technique: Sort-seq
Refers to: YFP reporter
Matrix: E. coli
Setting: PhoQ-PhoP variant library
Together with: 10 µM Mg2+
Reference: high Mg2+ state
Direction: higher = stronger signaling
| target | fold induction |
| --- | --- |
| PhoP, residues 12 14 15 18 19 HHYTI (Escherichia coli, UniProt P23836) | 1.91 |
| PhoP, residues 12 14 15 18 19 AYFRS (Escherichia coli, UniProt P23836) | 9.13 |
| PhoP, residues 12 14 15 18 19 SFCSL (Escherichia coli, UniProt P23836) | 18.3 |

Study 4
Target: Histone acetyltransferase KAT6A, both winged helices, GST fusion (KAT6A, Homo sapiens, UniProt Q92794, residues 1-181)
Technique: protein binding microarray
Form: double-stranded DNA, one strand shown
Matrix: in vitro
Concentration: not given
Setting: 8-mer, flanks averaged, mean of 2 arrays, mostly near background
Reference: not given
Direction: higher = stronger binding
Target sequence (chain): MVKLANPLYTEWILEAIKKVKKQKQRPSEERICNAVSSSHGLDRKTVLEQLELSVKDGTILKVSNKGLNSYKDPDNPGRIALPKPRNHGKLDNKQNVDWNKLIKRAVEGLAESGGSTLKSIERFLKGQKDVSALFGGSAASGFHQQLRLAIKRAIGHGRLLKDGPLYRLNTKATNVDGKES
| Sequence | E-score |
| --- | --- |
| CAAAATCA | -0.0929 |
| TGTCCACA | -0.142 |
| AAAATCGG | -0.0367 |
| GAATTAAC | -0.0739 |
| AAAACCGG | 0.188 |
| GGCCTGAC | -0.0408 |
| ACAAATAT | -0.119 |
| CGCTCCAC | 0.0967 |
| AAGTGTGG | -0.24 |
| CTTTCTTC | -0.0818 |
| AAATCTCC | -0.129 |
| AAGTCATG | -0.0556 |

Repeated from above (study 2):
| Substitution | normalised enrichment score |
| --- | --- |
| R5W | 0.0145 |
| R4C | 0.595 |
| R5A | -0.192 |
| T2W | 1.41 |
| D12S | 0.515 |
| E10N | 0.597 |
